Measurements of several laboratories.
Numbered parts are unrelated; each lists some results of a single study.

Block 1 — technique: universal PBM; form: double-stranded DNA, one strand shown; medium: in vitro; concentration: 600 nM; reading: higher = stronger binding
Target: Sal-like protein 4, full length isoform A (SALL4, Homo sapiens, UniProt Q9UJQ4, residues 1-1053)
Chain of UniProt Q9UJQ4 (whole entry, looked up): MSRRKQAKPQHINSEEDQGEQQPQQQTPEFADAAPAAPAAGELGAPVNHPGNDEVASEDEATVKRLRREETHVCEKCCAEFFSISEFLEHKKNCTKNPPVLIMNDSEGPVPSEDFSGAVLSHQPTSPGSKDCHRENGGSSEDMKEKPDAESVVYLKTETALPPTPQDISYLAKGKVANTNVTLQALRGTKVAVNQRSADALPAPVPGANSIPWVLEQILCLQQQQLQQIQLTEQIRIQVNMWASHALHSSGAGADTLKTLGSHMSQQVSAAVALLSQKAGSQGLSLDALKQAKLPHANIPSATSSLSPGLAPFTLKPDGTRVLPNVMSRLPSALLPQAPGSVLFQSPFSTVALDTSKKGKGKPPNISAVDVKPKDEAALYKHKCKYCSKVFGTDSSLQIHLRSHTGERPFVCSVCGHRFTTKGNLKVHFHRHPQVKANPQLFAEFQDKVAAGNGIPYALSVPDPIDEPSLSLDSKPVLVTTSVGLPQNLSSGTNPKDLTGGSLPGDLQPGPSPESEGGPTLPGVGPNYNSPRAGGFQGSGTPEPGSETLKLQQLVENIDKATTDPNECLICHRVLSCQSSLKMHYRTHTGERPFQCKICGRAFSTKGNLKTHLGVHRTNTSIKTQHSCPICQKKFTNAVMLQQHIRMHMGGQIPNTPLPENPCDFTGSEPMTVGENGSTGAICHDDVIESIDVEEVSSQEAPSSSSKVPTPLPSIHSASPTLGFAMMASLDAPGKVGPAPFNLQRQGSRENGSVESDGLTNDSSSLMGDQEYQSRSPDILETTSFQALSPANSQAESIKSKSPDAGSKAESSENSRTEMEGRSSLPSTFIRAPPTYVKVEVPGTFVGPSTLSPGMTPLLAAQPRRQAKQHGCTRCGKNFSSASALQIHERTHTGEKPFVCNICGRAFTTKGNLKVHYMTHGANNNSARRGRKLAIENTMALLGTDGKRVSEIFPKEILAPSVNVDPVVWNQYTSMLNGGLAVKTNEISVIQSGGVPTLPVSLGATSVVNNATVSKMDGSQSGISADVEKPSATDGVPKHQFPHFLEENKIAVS
Setting: 8-mer, flanks averaged, mean of replicates
Strand | E-score
GCTCGACC | -0.26
GATATGAC | 0.271
GATTACCC | 0.0372
GGAGCAGA | -0.0539
GCACTTCC | -0.194
CACCACCC | -0.295
AATTGATA | 0.316
GCGAGCCA | -0.217
ATTCCTCG | -0.0344
CTCGTTCA | 0.0699

Block 2 — technique: protein binding microarray; form: double-stranded DNA, one strand shown; medium: in vitro; concentration: not given; relative to: not given; reading: higher = stronger binding
Target: Histone acetyltransferase KAT6A, winged helix 2, GST fusion (KAT6A, Homo sapiens, UniProt Q92794, residues 85-181)
Setting: 8-mer, flanks averaged, mean of 2 arrays, mostly near background
Target sequence (chain): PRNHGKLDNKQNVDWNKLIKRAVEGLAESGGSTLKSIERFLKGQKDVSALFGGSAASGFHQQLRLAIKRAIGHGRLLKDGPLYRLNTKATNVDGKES
Strand | E-score
AAACATGC | -0.0657
AAGGGACC | 0.0975
AAACCGTT | -0.115
AAGCTCCT | -0.124
ACGAACGT | -0.0247
CAGATAAC | -0.0415

Block 3 — technique: protein-binding microarray; form: double-stranded DNA, one strand shown; medium: in vitro; concentration: not given; reading: higher = stronger binding
Target: Protein C-ets-1 (ETS1, Homo sapiens, UniProt P14921, residues 1-441, K379A, full length assumed)
Chain of UniProt P14921 (whole entry, unmodified, looked up): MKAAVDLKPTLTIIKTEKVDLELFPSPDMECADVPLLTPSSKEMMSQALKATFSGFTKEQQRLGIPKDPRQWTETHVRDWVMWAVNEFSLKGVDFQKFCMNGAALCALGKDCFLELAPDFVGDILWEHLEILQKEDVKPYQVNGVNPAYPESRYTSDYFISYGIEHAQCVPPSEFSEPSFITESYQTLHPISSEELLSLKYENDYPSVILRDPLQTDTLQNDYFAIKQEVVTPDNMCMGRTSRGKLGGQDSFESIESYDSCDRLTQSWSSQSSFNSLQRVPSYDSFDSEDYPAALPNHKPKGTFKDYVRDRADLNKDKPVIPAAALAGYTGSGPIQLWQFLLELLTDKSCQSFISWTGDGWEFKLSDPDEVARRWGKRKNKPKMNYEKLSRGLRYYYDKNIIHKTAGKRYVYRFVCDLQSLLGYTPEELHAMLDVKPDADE
Setting: k-mer, scored over probes, only values ≥0.25
Strand | E-score
ACTGTATG | 0.252
CGGGAAGA | 0.264
AGCGCCGG | 0.294
CCGGGGGC | 0.329

Single results of other studies
Molecule | target | assay | test system | conditions | how to read | measurement | result
PhoQ, residues 284 288 289 292 302 303 TAVSDG | PhoP, residues 12 14 15 18 19 TQAIL (Escherichia coli, UniProt P23836) | Sort-seq, item: YFP reporter | E. coli | PhoQ-PhoP variant library, with: 10 µM Mg2+ | relative to: high Mg2+ state, higher = stronger signaling | fold induction | 19.9

Some of these lines once more (single results of other studies):
Molecule | target | assay | test system | conditions | how to read | measurement | result
PhoQ, residues 284 288 289 292 302 303 TAVSDG | PhoP, residues 12 14 15 18 19 TQAIL (Escherichia coli, UniProt P23836) | Sort-seq, item: YFP reporter | E. coli | PhoQ-PhoP variant library, with: 10 µM Mg2+ | relative to: high Mg2+ state, higher = stronger signaling | fold induction | 19.9
